Results pooled from the literature.
A part holds a random share of what one study measured.
Chain of UniProt Q8IU85 (whole entry, looked up): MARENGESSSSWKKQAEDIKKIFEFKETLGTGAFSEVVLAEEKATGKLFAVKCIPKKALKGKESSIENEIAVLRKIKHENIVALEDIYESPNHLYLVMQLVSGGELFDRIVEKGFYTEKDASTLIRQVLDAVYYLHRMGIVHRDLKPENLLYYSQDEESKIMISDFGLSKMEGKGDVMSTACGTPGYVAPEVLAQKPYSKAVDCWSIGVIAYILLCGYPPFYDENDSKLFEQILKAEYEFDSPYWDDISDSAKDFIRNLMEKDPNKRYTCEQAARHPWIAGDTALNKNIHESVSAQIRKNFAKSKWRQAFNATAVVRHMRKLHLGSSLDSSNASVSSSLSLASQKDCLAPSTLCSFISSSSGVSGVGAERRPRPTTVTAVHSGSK
Chain of UniProt P57058 (whole entry, looked up): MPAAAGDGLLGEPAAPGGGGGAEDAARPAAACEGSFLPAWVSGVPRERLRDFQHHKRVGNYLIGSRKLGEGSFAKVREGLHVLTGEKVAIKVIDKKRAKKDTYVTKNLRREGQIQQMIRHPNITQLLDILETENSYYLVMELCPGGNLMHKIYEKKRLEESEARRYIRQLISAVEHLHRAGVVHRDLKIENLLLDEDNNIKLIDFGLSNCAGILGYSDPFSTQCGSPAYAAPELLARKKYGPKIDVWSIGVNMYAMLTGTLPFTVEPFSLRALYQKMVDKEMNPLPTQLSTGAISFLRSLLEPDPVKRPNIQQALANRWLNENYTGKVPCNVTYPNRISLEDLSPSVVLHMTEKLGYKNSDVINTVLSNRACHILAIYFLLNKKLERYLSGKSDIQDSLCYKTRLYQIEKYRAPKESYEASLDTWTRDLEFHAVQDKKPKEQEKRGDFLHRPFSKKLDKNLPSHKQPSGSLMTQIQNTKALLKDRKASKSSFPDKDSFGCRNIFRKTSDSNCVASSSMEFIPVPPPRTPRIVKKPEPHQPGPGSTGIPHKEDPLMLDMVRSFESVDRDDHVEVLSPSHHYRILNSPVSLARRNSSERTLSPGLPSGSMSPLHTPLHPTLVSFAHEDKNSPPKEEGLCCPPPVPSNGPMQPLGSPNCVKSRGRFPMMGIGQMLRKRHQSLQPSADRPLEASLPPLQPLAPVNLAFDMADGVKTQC
Chain of UniProt Q9Y3S1 (whole entry, looked up): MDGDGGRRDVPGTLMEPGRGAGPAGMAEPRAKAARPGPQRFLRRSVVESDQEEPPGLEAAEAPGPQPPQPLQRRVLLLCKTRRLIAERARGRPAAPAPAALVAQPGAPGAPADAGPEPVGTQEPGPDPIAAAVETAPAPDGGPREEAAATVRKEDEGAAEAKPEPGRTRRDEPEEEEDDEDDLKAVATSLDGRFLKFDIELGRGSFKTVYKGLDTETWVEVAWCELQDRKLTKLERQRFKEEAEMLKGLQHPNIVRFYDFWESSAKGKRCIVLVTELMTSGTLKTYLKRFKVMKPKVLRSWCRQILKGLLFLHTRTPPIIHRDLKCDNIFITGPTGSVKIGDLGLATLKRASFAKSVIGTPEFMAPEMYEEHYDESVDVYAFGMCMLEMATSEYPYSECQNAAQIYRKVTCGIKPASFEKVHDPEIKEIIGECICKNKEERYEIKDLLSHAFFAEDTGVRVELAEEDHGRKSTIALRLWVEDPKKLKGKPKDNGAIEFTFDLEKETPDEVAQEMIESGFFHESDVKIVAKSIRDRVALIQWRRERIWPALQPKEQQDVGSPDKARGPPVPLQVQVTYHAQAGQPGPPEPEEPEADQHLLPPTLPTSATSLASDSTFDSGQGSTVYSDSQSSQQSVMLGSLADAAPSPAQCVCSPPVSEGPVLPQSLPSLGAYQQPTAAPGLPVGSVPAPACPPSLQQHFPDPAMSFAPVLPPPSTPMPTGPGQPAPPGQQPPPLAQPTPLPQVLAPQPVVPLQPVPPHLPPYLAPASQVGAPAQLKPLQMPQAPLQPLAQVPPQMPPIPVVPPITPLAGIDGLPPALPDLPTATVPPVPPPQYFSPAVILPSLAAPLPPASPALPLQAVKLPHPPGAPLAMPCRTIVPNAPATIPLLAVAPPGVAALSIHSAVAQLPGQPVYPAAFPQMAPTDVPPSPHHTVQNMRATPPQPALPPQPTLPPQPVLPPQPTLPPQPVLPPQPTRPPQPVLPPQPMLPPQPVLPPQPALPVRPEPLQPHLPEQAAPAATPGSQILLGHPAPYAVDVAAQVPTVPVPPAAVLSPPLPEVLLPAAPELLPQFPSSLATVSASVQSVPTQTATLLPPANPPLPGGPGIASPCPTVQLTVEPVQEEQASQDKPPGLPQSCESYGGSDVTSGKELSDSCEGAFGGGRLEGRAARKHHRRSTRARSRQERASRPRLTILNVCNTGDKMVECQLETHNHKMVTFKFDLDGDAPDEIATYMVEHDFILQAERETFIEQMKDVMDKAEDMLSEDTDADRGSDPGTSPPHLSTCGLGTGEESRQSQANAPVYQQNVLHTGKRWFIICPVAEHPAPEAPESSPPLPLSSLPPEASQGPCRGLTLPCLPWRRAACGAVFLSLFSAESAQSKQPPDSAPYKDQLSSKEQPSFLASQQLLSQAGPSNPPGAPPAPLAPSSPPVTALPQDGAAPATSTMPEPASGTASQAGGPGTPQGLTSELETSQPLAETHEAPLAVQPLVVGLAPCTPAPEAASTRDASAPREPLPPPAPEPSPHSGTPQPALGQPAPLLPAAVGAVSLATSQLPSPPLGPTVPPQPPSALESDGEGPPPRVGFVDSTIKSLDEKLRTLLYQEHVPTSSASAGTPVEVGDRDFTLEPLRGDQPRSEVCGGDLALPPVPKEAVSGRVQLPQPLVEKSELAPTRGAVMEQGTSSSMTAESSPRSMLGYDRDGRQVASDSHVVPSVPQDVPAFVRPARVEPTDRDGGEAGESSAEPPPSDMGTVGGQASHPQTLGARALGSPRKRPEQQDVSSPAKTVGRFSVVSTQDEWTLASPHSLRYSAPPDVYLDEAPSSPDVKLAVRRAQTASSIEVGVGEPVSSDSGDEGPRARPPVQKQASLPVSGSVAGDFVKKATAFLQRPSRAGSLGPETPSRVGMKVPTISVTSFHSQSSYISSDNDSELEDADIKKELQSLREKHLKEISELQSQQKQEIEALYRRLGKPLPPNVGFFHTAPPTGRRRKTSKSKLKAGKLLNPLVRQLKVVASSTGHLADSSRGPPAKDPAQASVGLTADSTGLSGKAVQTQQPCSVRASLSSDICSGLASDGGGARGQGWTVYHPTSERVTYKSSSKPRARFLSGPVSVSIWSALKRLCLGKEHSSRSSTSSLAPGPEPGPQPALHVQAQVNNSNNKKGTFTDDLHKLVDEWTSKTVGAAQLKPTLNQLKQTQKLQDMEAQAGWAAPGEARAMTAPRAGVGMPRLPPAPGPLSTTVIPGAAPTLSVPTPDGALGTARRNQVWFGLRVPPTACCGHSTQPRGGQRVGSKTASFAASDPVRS
Chain of UniProt Q96PN8 (whole entry, looked up): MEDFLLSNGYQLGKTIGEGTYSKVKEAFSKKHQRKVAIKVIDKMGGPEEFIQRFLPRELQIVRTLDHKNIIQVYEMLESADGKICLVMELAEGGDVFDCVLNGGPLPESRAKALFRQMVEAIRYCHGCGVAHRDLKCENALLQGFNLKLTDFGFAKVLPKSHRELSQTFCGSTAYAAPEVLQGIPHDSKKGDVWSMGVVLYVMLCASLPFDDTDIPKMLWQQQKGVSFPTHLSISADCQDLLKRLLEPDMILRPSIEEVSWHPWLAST

Block 1 — technique: RNAcompete; form: RNA; sample: in vitro; concentration: 20 nM; notes: 7-mer, probes averaged, single round; baseline: mean of 7-mers; direction: higher = stronger binding; measurement: 7-mer Z-score
Target: PABPC1L2, full length, GST fusion (mouse, UniProt A0ABA7IW68)
Construct (chain): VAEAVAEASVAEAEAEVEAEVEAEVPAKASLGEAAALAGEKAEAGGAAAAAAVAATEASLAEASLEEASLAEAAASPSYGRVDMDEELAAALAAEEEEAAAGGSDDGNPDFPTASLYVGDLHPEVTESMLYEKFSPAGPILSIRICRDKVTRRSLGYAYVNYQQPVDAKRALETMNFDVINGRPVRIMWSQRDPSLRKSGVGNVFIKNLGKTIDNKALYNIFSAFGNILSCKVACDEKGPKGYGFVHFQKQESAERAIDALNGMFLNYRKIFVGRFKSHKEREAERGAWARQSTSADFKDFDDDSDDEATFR
GUACUGU: -0.191
AGGCCUC: -0.242
AGCGGUG: 0.00979
GUCCGCA: -0.423
CAUGAUC: -0.159
CUACCGA: -0.0826
CUUUCAC: -0.32
GCCCGUC: -0.329

Block 2 — technique: RNA Bind-n-Seq; form: RNA; sample: in vitro; concentration: not given; notes: 4-mer, random 30-nt RNA, single round; together with: RocA, ADP, phosphate; baseline: input library; direction: higher = stronger binding; measurement: 4-mer enrichment
Target: ATP-dependent RNA helicase DDX3X, helicase core (DDX3X, Homo sapiens, UniProt O00571, residues 132-607)
Chain of UniProt O00571 (132-607, looked up): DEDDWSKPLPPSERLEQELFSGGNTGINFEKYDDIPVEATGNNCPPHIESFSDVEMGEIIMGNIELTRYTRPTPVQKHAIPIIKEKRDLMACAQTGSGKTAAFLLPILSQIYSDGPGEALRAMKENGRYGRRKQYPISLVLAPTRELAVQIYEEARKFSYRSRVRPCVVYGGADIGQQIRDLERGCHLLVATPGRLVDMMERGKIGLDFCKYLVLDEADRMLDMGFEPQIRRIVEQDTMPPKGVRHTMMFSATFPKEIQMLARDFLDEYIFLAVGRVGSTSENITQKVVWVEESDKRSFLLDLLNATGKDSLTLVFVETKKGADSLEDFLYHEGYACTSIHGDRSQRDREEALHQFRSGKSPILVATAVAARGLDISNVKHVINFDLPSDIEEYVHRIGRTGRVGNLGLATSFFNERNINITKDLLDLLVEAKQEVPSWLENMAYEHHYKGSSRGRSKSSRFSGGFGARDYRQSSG
GAUG: 1.09 fold
GCGG: 1.01 fold
GCGA: 1.12 fold
GGGC: 1.02 fold
CACU: 0.656 fold
GUGC: 0.838 fold
ACUC: 0.598 fold
AGAG: 1.86 fold

Block 3 — observed: cell-free assay; technique: competition with immobilised ligand; concentration: 0.1 µM; measurement: remaining binding
SMILES: CS(=O)(=O)N1CCCC(NC(=O)[C@H](CCC2CCCCC2)NC(=O)c2ccc(CNc3ncnc4c3nnn4-c3ccccc3)cc2)C1 (some centres unmarked)
MAP/microtubule affinity-regulating kinase 4 (MARK4, Homo sapiens, UniProt Q96L34): 71%
Testis-specific serine/threonine-protein kinase 3 (TSSK3, Homo sapiens, UniProt Q96PN8): 100%
Serine/threonine-protein kinase VRK2 (VRK2, Homo sapiens, UniProt Q86Y07): 91%
Epidermal growth factor receptor (EGFR, Homo sapiens, UniProt P00533, L858R/T790M): 84%
Serine/threonine-protein kinase WNK2 (WNK2, Homo sapiens, UniProt Q9Y3S1): 100%
Phosphatidylinositol 4,5-bisphosphate 3-kinase catalytic subunit alpha isoform (PIK3CA, Homo sapiens, UniProt P42336, H1047Y): 100%
Calcium/calmodulin-dependent protein kinase type 1D (CAMK1D, Homo sapiens, UniProt Q8IU85): 97%
LIM domain kinase 2 (LIMK2, Homo sapiens, UniProt P53671): 100%
Serine/threonine-protein kinase SIK3 (SIK3, Homo sapiens, UniProt Q9Y2K2): 78%
Cyclin-dependent kinase 13 (CDK13, Homo sapiens, UniProt Q14004): 100%
Mitogen-activated protein kinase 15 (MAPK15, Homo sapiens, UniProt Q8TD08): 100%
Serine/threonine-protein kinase mTOR (MTOR, Homo sapiens, UniProt P42345): 100%
Hormonally up-regulated neu tumor-associated kinase (HUNK, Homo sapiens, UniProt P57058): 100%
Mast/stem cell growth factor receptor Kit, autoinhibited (KIT, Homo sapiens, UniProt P10721): 100%
NT-3 growth factor receptor (NTRK3, Homo sapiens, UniProt Q16288): 86%

Block 4 — observed: enzyme activity; mode: inhibitor; concentration: 0.5 µM; baseline: control; measurement: remaining activity
Target: Serine/threonine-protein kinase DCLK2 (DCLK2, Homo sapiens, UniProt Q8N568)
Chain of UniProt Q8N568 (whole entry, looked up): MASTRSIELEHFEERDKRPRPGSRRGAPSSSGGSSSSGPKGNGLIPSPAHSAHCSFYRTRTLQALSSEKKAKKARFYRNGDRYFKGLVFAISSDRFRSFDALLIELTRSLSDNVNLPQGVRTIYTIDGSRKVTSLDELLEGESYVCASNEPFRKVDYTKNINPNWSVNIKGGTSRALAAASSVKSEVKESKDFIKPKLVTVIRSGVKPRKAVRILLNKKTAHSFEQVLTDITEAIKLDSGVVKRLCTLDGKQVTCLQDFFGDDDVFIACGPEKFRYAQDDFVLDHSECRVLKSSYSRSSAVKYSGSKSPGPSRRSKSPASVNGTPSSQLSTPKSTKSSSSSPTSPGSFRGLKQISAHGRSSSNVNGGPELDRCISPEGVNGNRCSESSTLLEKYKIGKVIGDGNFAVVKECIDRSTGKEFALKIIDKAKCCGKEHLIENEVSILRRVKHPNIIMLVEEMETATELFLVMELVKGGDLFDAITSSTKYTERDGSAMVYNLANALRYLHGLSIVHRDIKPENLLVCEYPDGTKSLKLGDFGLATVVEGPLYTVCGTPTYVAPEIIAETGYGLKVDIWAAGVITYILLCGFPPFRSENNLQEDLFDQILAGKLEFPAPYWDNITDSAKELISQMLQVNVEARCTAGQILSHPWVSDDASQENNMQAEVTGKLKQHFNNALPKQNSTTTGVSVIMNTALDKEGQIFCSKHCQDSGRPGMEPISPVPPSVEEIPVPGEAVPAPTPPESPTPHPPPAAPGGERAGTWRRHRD
Cc1ccc(Nc2nccc(N(C)c3ccc4c(C)n(C)nc4c3)n2)cc1S(N)(=O)=O: 102%
COc1cc2nccc(Oc3ccc(NC(=S)NC(=O)c4ccccc4C)cc3)c2cc1OC: 91.5%
CC(C)[C@H](CO)Nc1nc(Nc2cc(N)cc(Cl)c2)c2ncn(C(C)C)c2n1: 105%
N#CC(C#N)=C(N)/C(C#N)=C/c1ccc(O)cc1: 101%
Nc1ccc2ncnc(NCCc3ccc(Oc4ccccc4)cc3)c2c1: 99.1%
Cc1cccc(-c2[nH]c(C(C)(C)C)nc2-c2ccc3c(c2)OCO3)n1: 101%
Cn1c2ccccc2c2c3c(c4c5ccccc5n(CCC#N)c4c21)CNC3=O: 84.7%
COc1ccc(CNC(=O)Nc2ncc([N+](=O)[O-])s2)cc1: 99.2%
COc1ccc(C(=O)Nc2sc3c(c2C(N)=O)CCCC3)cc1OC: 98.6%
Nc1ncnc2n[nH]c(Nc3ccc(F)cc3)c12: 99.5%
OCC(O)CCON=C1C(c2c(O)[nH]c3ccccc23)=Nc2ccccc21 (centres unmarked): 86.4%
Oc1ccc(-c2nc(-c3ccncc3)c(-c3ccc(F)cc3)[nH]2)cc1: 102%
CCOC(=O)c1c(C)[nH]c(/C=C2\C(=O)Nc3ccccc32)c1C: 94.7%

Repeated from above (block 3):
Cyclin-dependent kinase 13 (CDK13, Homo sapiens, UniProt Q14004): 100%
Mast/stem cell growth factor receptor Kit, autoinhibited (KIT, Homo sapiens, UniProt P10721): 100%
NT-3 growth factor receptor (NTRK3, Homo sapiens, UniProt Q16288): 86%
Serine/threonine-protein kinase mTOR (MTOR, Homo sapiens, UniProt P42345): 100%
